Results gathered from unrelated publications.
Compare with care: the assays were run in different laboratories. ± gives the spread as reported. No end group written: not given here.
SCN10A: Sodium channel protein type 10 subunit alpha (SCN10A, Homo sapiens, UniProt Q9Y5Y9)
Sequence of UniProt Q9Y5Y9 (whole entry, looked up): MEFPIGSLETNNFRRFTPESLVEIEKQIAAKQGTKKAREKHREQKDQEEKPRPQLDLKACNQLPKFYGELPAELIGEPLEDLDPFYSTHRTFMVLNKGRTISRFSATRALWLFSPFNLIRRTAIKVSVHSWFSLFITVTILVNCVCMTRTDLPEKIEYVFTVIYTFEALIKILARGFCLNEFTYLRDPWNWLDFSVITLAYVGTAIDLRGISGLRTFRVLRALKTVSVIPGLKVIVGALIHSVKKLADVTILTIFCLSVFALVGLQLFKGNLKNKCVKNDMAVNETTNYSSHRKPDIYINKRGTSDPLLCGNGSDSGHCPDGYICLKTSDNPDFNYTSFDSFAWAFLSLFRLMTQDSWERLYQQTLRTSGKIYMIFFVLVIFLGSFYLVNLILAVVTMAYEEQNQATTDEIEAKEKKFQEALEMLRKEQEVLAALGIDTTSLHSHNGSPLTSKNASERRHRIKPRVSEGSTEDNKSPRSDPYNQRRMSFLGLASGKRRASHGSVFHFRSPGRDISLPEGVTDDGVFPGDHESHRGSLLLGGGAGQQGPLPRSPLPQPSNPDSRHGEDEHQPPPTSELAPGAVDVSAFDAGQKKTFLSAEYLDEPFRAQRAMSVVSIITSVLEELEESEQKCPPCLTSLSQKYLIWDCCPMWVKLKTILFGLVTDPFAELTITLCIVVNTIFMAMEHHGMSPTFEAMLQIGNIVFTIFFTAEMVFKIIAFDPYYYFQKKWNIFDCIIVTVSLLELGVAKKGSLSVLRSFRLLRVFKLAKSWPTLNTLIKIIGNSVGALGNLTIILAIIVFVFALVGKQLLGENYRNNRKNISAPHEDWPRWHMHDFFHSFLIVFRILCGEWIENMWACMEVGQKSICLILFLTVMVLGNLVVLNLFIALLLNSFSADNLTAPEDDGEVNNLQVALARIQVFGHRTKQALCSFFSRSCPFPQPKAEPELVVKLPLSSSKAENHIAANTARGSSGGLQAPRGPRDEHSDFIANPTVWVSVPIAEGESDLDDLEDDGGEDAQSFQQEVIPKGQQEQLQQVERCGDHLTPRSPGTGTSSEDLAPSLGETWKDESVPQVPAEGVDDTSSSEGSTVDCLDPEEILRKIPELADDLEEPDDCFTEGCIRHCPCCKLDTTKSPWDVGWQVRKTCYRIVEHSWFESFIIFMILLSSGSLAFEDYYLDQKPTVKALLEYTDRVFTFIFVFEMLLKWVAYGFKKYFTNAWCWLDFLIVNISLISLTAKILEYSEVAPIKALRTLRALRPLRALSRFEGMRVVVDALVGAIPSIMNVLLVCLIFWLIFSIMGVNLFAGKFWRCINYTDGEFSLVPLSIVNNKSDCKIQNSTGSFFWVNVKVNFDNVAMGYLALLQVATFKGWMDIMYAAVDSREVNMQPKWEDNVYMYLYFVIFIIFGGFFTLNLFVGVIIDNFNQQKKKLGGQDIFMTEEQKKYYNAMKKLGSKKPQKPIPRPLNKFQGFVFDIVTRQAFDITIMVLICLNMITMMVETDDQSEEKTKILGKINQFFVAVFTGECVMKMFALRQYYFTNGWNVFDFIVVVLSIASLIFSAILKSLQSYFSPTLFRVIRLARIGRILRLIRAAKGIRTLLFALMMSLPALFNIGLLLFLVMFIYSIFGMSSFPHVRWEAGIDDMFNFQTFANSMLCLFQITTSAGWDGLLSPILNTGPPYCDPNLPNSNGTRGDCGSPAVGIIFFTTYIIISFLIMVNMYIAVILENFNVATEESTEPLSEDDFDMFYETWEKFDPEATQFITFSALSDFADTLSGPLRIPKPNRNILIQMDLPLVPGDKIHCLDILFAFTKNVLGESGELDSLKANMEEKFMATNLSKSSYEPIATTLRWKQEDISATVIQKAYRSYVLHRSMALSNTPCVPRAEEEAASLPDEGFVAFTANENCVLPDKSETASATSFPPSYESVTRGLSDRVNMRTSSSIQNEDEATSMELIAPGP
CHRM4: Muscarinic acetylcholine receptor M4 (CHRM4, Homo sapiens, UniProt P08173)
Sequence of UniProt P08173 (whole entry, looked up): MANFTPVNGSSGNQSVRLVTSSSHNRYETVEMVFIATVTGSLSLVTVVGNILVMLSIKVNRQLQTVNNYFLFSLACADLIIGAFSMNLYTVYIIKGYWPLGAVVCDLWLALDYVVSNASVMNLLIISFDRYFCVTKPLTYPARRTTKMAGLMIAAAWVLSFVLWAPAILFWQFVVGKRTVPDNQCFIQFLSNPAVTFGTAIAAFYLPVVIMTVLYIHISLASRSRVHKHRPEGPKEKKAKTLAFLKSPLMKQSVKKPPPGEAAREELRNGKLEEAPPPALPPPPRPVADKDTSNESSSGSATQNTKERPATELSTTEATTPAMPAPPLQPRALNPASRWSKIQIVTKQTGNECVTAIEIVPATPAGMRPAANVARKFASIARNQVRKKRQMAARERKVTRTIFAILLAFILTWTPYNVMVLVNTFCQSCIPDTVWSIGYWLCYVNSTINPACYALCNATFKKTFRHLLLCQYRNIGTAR
CHRM1: Muscarinic acetylcholine receptor M1 (CHRM1, Homo sapiens, UniProt P11229)
Sequence of UniProt P11229 (whole entry, looked up): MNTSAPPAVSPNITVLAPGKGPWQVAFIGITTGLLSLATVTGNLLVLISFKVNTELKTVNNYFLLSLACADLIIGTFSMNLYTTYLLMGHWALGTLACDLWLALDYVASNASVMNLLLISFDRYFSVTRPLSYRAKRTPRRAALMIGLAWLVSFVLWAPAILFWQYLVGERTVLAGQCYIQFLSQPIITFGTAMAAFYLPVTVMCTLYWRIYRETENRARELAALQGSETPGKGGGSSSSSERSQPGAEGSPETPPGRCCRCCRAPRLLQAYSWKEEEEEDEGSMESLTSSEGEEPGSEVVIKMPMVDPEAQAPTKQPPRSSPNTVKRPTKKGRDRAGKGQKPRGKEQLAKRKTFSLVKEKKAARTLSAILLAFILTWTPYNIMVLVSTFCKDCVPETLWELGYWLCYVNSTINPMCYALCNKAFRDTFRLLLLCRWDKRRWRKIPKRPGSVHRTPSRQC
T1: DNA hairpin, hairpin; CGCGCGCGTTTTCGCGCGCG
T2: DNA hairpin, HEG linker; GTTATATCTTGATATAAC
T3: DNA G4, G-quadruplex (Homo sapiens); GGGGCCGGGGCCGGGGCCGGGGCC
T4: c-di-GMP riboswitch (Clostridium acetobutylicum); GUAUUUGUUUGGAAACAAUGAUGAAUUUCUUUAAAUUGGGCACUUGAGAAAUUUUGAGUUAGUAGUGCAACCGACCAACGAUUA
B1: side-chain stapled; chain CRTKQCARKSTGG (also: sidechain bridge or staple (positions not given here))
Sequence of UniProt Q8T6T2 (whole entry, looked up): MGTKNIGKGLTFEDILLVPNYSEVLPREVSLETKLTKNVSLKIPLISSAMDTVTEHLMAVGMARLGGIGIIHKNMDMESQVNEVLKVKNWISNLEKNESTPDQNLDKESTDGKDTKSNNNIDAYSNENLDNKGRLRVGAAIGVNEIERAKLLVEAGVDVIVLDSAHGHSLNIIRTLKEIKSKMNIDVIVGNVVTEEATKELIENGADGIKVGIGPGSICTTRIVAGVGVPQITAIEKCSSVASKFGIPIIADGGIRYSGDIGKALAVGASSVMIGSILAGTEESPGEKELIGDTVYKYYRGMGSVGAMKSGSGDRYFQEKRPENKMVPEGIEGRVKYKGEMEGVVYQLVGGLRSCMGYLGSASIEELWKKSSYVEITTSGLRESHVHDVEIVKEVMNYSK
Sequence of UniProt Q21974 (whole entry, unmodified, looked up): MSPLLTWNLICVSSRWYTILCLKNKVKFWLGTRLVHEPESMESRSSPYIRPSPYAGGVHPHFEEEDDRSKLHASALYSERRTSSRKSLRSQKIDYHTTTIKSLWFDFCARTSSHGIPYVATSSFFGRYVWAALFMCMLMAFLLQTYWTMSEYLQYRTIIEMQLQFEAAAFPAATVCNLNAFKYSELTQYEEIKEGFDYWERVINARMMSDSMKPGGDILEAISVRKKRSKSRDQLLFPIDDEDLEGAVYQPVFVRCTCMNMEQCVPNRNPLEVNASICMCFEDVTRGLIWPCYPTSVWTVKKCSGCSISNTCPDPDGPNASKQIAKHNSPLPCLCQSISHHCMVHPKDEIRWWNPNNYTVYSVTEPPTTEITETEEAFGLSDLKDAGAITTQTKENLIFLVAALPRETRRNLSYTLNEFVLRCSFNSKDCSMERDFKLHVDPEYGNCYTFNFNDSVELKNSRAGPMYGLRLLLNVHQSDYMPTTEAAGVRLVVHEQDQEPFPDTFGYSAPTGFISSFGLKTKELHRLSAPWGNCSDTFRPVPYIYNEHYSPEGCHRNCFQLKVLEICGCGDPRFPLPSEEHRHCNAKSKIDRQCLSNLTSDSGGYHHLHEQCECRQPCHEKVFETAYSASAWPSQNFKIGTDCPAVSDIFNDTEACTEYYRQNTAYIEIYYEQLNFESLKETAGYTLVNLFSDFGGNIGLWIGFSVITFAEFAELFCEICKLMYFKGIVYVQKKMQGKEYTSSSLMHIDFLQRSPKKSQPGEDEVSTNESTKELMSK
Sequence of UniProt P06401 (whole entry, looked up): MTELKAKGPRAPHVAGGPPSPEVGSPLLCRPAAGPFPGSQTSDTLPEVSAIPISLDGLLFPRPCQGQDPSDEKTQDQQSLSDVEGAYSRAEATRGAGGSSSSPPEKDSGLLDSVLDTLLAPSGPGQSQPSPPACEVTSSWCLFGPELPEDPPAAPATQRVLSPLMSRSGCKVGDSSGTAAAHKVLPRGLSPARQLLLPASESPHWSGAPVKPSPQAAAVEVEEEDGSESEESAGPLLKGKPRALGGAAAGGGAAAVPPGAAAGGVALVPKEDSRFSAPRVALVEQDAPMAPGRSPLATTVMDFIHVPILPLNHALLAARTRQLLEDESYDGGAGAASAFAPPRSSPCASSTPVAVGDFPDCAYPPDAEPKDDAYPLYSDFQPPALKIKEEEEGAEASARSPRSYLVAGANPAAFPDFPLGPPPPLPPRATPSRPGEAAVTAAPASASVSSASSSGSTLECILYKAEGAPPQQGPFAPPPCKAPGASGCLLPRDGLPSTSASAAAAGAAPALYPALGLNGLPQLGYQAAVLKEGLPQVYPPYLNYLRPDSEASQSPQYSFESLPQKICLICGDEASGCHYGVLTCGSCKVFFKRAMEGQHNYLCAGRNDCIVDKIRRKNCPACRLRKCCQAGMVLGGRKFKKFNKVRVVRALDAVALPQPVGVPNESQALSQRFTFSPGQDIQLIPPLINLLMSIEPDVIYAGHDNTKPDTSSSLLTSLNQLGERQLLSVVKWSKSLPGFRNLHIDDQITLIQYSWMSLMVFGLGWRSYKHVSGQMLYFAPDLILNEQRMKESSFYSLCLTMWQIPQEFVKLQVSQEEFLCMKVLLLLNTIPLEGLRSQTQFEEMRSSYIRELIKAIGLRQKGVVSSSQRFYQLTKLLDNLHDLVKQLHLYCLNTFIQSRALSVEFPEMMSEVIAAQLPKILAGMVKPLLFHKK

Substance | target | assay | test system | conditions | how to read | endpoint | result
CCCCOC(=O)c1scc(C)c1NC(=O)C(C)NCCC (stereo not shown) | SCN10A | cell membrane chromatography | – | – | higher = stronger binding | capacity factor k′ | 26
N=C(N)Nc1ccc(Nc2ccc(NC(=N)N)cc2)cc1 | T1, DNA hairpin, hairpin | SPR | – | 8 µM, pH 6.25, 25 °C, Na+ 100 mM, too weak to fit | – | binding | binds weakly
NC(=Nc1ccccc1)NC(=O)c1nc(Cl)c(N)nc1N | unc-8 (Caenorhabditis elegans, UniProt Q21974, G387E) | ion current, two-electrode voltage clamp | Xenopus oocytes coexpressing MEC-2 | 30 µM, -85 mV | reference: uninjected oocytes, positive = inhibition | current change | 0.18 µA
COc1ccc(C)c2sc(NC(=O)NC3CCC3)nc12 | CHRM4 | calcium mobilization, positive allosteric modulator | CHO expressing hM4 and Gqi5 | concentration not given, added: acetylcholine EC20 | – | activity | inactive
N[C@@H](CCC(=O)O)C(=O)O | Protein tweety homolog 3 (Ttyh3, Mus musculus, UniProt Q6P5F7) | permeant anion, whole-cell patch clamp | HEK-293T co-expressing AQP4 | 70 mM, hypo-osmotic solution | reference: compound over chloride | permeability ratio | ~0.26
C[n+]1cc(NC(=O)c2ccc3ccc4ccc(C(=O)Nc5cc6ccccc6[n+](C)c5)nc4c3n2)cc2ccccc21 | T2, DNA hairpin, HEG linker | Thiazole Orange displacement, competitor, fluorescent indicator displacement | – | pH 7.2, KCl 100 mM | – | IC50 | > 2.5 µM
Nc1ncnc2c1nc(N1CCCCC1)n2[C@@H]1O[C@@H]2COP(=O)(O)O[C@H]2[C@H]1O | cAMP-dependent protein kinase type II-beta regulatory subunit, holoenzyme with catalytic subunit (Prkar2b, Rattus norvegicus, UniProt P12369, S112A) | PKA holoenzyme activation, activator, fluorescence anisotropy | – | – | reference: RIIβ over RIα, higher = RIIβ-selective | selectivity ratio | 0.3
NC(=O)c1ccc[n+]([C@@H]2O[C@H](COP(=O)([O-])OP(=O)(O)OC[C@H]3O[C@@H](n4cnc5c(N)ncnc54)[C@H](O)[C@@H]3O)[C@@H](O)[C@H]2O)c1 | Inosine-5'-monophosphate dehydrogenase (Cryptosporidium parvum, UniProt Q8T6T2) | uncompetitive substrate inhibition | – | pH 8.0, 25 °C, dinucleotide intercept constant | – | Kii | 4.9 mM
COC(=O)c1scc(C)c1NC(=O)C(C)N1CCNCC1 (stereo not shown) | SCN10A | cell membrane chromatography | – | – | higher = stronger binding | capacity factor k′ | 32
CC[C@H](C)[C@H](NC(=O)[C@H](CCC(=O)O)NC(=O)[C@@H]1CCCN1C(=O)[C@H](CCCNC(=N)N)NC(C)=O)C(=O)N[C@@H](Cc1c[nH]c2ccccc12)C(=O)N[C@@H](Cc1ccc(O)cc1)C(=O)N[C@@H](C)C(=O)N[C@@H](CCC(N)=O)C(=O)NCC(=O)N[C@@H](CC(C)C)C(=O)N[C@@H](CCCCN)C(=O)N[C@@H](CCCNC(=N)N)C(=O)N[C@@H](Cc1ccccc1)C(=O)NCC(=O)N[C@@H](CC(=O)O)C(=O)N[C@@H](CCC(=O)O)C(=O)N[C@@H](Cc1ccccc1)C(=O)N[C@@H](CC(N)=O)C(=O)N[C@@H](C)C(=O)N[C@@H](Cc1ccc(O)cc1)C(=O)N[C@@H](Cc1ccc(O)cc1)C(=O)N[C@@H](C)C(=O)N[C@@H](CCCNC(=N)N)C(N)=O | Induced myeloid leukemia cell differentiation protein Mcl-1 (MCL1, Homo sapiens, UniProt Q07820) | binding, fluorescence polarization competition | – | 50 nM protein, added: 10 nM fluorescein Bim-BH3 | no competition up to this value | highest concentration without competition | > 10 µM
COc1ccc(C)c2sc(NC(=O)CC(C)(C)C)nc12 | CHRM4 | calcium mobilization, positive allosteric modulator | CHO expressing hM4 and Gqi5 | concentration not given, added: acetylcholine EC20 | – | activity | inactive
CIKVAVS | human polyclonal IgM rheumatoid factor | binding to mAb II-481 | peptide | combined CDR peptides, serum CLAU | – | maximum inhibition | 0%
Cn1cc(-c2ccc(COc3ccccc3-c3cc(=O)n(C4CCCCC4O)cn3)cn2)cn1 (stereo not shown) | CHRM1 | positive allosteric modulator, IP1 accumulation | CHO-M1 cells | 1 µM, 60 min, 37 °C, added: ACh | reference: ACh alone, higher = stronger potentiation | ΔpEC50 of ACh | 1.51 ± 0.15 log units
CCCCCCCCCCCCCCCC(=O)N[C@@H](CCC(=O)NCCCC[C@H](NC(=O)[C@H](CC(N)=O)NC(=O)[C@@H](NC(=O)[C@H](Cc1ccc(O)cc1)NC(=O)[C@H](CCCNC(=N)N)NC(=O)[C@H](CCCNC(=N)N)NC(=O)[C@H](CC(C)C)NC(=O)[C@H](CC(=O)O)NC(=O)[C@H](C)NC(=O)[C@H](C)NC(=O)[C@H](Cc1ccc(O)cc1)NC(=O)[C@H](CCC(N)=O)NC(=O)[C@H](C)NC(=O)[C@H](CCSC)NC(=O)[C@H](CCC(N)=O)NC(=O)[C@H](CCC(=O)O)NC(=O)[C@@H]1CCCN1C(=O)[C@@H](NC(=O)[C@H](C)NC(=O)[C@H](CC(N)=O)NC(=O)[C@H](CC(=O)O)NC(=O)CNC(=O)[C@@H]1CCCN1C(=O)[C@H](Cc1ccc(O)cc1)NC(=O)[C@@H](NC(=O)[C@@H]1CCCN1C(=O)[C@H](CCC(=O)O)NC(=O)[C@H](CC(C)C)NC(=O)[C@@H]1CCCN1C(=O)[C@H](C)NC(=O)c1ccc2c(c1)C(=O)OC21c2ccc(O)cc2Oc2cc(O)ccc21)C(C)C)[C@@H](C)O)[C@@H](C)CC)C(=O)N[C@@H](CC(C)C)C(=O)N[C@H](C(=O)N[C@@H](CCCNC(=N)N)C(=O)N1CCC[C@H]1C(=O)N[C@@H](CCCNC(=N)N)C(=O)N[C@@H](Cc1ccc(O)cc1)C(N)=O)[C@@H](C)O)C(=O)O | Neuropeptide Y receptor type 4 (NPY4R, Homo sapiens, UniProt P50391) | radioligand displacement | COS-7 transiently expressing | 1 µM, 90 min, room temperature, added: [3H]-hPP 1 nM | reference: total binding | specific binding | 83%
COc1ccc(C)c2sc(NC(=O)c3cc(F)cc(F)c3)nc12 | CHRM4 | calcium mobilization, positive allosteric modulator | CHO expressing hM4 and Gqi5 | concentration not given, added: acetylcholine EC20 | – | activity | inactive
O=C(c1ccc(COc2ccccc2-c2cc(=O)n(C3CCCCC3O)cn2)cc1)N1CCCCC1 (stereo not shown) | CHRM1 | allosteric agonist, IP1 accumulation | CHO-M1 cells | 10 µM, unit not given | reference: maximum ACh response | change in baseline activity | 26.9 ± 3.2
C=CC(C)(C)c1cc2c(cc1O)OC[C@H](c1cc(-c3oc4cc(O)ccc4c3C(=O)c3cc(C(C)(C)C=C)c(O)cc3O)c(O)cc1O)C2 | quinone reductase | inducer | Hepa1c1c7 | – | – | concentration doubling activity | 2.1 µM

Substance | target | assay | test system | conditions | how to read | endpoint | result
COC(=O)c1scc(C)c1NC(=O)C(C)N1CCS(=O)(=O)CC1 (stereo not shown) | SCN10A | cell membrane chromatography | – | – | higher = stronger binding | capacity factor k′ | 0.4
CC(C)(C)OC(=O)Nc1ccc(COc2ccccc2-c2cc(=O)n(C3CCCCC3O)cn2)cc1 (stereo not shown) | CHRM1 | positive allosteric modulator, IP1 accumulation | CHO-M1 cells | 10 µM, 60 min, 37 °C, added: ACh | reference: ACh alone, higher = stronger potentiation | ΔpEC50 of ACh | 1.57 ± 0.3 log units
Brc1ccc2[nH]ccc2c1 | Dehaloperoxidase B, ferric (Amphitrite ornata, UniProt Q9NAV7) | substrate, HPLC | – | 500 µM, 5 min, pH 7, 25 °C, 5% methanol, added: H2O2 | – | conversion | 48.1%
Cn1cc(-c2ccc(COc3ccccc3-c3cc(=O)n(C4CCCCC4O)cn3)c(F)c2)cn1 (stereo not shown) | CHRM1 | positive allosteric modulator, IP1 accumulation | CHO-M1 cells | 10 µM, 60 min, 37 °C, added: ACh | reference: ACh alone, higher = stronger potentiation | ΔpEC50 of ACh | 0.69 ± 0.62 log units
C=CC(=O)NCCCC[C@H](NC(=O)OCc1ccccc1)C(=O)N1CCN(C(=O)c2ccccn2)CC1 | Protein-glutamine gamma-glutamyltransferase (TGM2, Homo sapiens, UniProt P21980) | – | – | pH 6.5 | – | kinact | 0.0488 ± 0.00483 s⁻¹
N[C@@H](Cc1ccc(O)c(O)c1)C(=O)O | DOPA 4,5-dioxygenase (Anabaena cylindrica, UniProt K9ZE23) | substrate, spectrophotometry | – | pH 7.0, 25 °C, added: sodium ascorbate 100 mM | – | substrate inhibition constant | 31.9 µM
Clc1cccc(Nc2nnc(-c3ccccc3)c3ccccc23)c1 | Dual specificity calcium/calmodulin-dependent 3',5'-cyclic nucleotide phosphodiesterase 1A (PDE1A, Homo sapiens, UniProt P54750) | cAMP hydrolysis, inhibitor, fluorescence polarization | recombinant enzyme | up to 100 µM, 30 min preincubation, 30 °C, added: fluorescein-cAMP 25 nM | – | IC50 | inactive
CCN(c1ccc(Cl)cc1)S(=O)(=O)C1CC2OC1C(c1ccc(O)cc1)=C2c1ccc(O)cc1 (stereo not shown) | Estrogen receptor beta (ESR2, Homo sapiens, UniProt Q92731) | reporter gene, antagonist | HepG2 | added: estradiol 10 nM | reference: E2 response, negative is inverse agonism | efficacy | -12 ± 1%
CC(=O)Cc1cc2c(c(O)c1C(=O)O)-c1c(c(O)c3oc4c(O[C@@H]5OC(C(=O)O)=C(O)[C@H](O)[C@H]5O)cccc4c(=O)c3c1O)CC2 | T3, DNA G4, G-quadruplex (Homo sapiens) | fluorescence intensity titration | – | pH 6.8, KCl 8 mM, one site with Hill slope | – | Kd | 2800 µM
Cn1c(N)nc2c(ncn2[C@@H]2O[C@@H]3COP(=O)(O)O[C@H]4[C@@H](O)[C@H](n5cnc6c(=O)[nH]c(N)nc65)O[C@@H]4COP(=O)(O)O[C@H]3[C@H]2O)c1=O | T4, c-di-GMP riboswitch (Clostridium acetobutylicum) | competitor, competition gel-shift | – | 4-24 h, pH 6.8, 22 °C, added: radiolabelled c-di-GMP | – | Kd | 0.16 µM
CCC(CC)CSc1nc2c([nH]1)c(=S)n(C)c(=O)n2C | Progesterone receptor (PGR, Homo sapiens, UniProt P06401) | reporter gene, antagonist, MMTV-luciferase | T47D/A1-2 | 10 µM, 24 h, added: 5 nM progesterone | reference: maximal activity | remaining activity | 24%
O=c1cc(-c2ccccc2OCc2ccc([N+](=O)[O-])cc2)ncn1C1CCCCC1O (stereo not shown) | CHRM1 | allosteric agonist, IP1 accumulation | CHO-M1 cells | 1 µM, unit not given | reference: maximum ACh response | change in baseline activity | 31.3 ± 2.7
COc1ccc(C)c2sc(NS(=O)(=O)c3cc(C)ccn3)nc12 | CHRM4 | calcium mobilization, positive allosteric modulator | CHO expressing hM4 and Gqi5 | concentration not given, added: acetylcholine EC20 | – | activity | inactive
O=c1cc(-c2ccccc2OCc2ccccc2)ncn1C1CCCCC1O (stereo not shown) | CHRM1 | positive allosteric modulator, IP1 accumulation | CHO-M1 cells | 10 µM, 60 min, 37 °C, added: ACh | reference: ACh alone, higher = stronger potentiation | ΔpEC50 of ACh | 1.83 ± 0.11 log units
Nc1ccn([C@@H]2O[C@H](COP(=O)(O)OP(=O)(O)OP(=O)(O)O)[C@@H](O)C2(F)F)c(=O)n1 | Adenosylcobalamin-dependent ribonucleoside-triphosphate reductase (rtpR, Lactobacillus leichmannii, UniProt Q59490) | mechanism-based inactivator | – | 1 eq, under 2 min, pH 7.5, 37 °C, added: AdoCbl and dATP | – | inactivation | 100%
CN(C)C(=O)c1ccc(COc2ccccc2-c2cc(=O)n(C3CCCCC3O)cn2)cc1 (stereo not shown) | CHRM1 | allosteric agonist, IP1 accumulation | CHO-M1 cells | 1 µM, unit not given | reference: maximum ACh response | change in baseline activity | 21.5 ± 2.3
B1 | Histone-lysine N-methyltransferase SETD7 (SETD7, Homo sapiens, UniProt Q8WTS6) | peptide methylation, substrate, MALDI-TOF MS | – | 10 µM, 3 h, pH 8.0, 37 °C, enzyme 500 nM, added: SAM 30 µM | – | methylation conversion | ~65%

A few entries again:
Substance | target | assay | test system | conditions | how to read | endpoint | result
N[C@@H](CCC(=O)O)C(=O)O | Protein tweety homolog 3 (Ttyh3, Mus musculus, UniProt Q6P5F7) | permeant anion, whole-cell patch clamp | HEK-293T co-expressing AQP4 | 70 mM, hypo-osmotic solution | reference: compound over chloride | permeability ratio | ~0.26
C[n+]1cc(NC(=O)c2ccc3ccc4ccc(C(=O)Nc5cc6ccccc6[n+](C)c5)nc4c3n2)cc2ccccc21 | T2, DNA hairpin, HEG linker | Thiazole Orange displacement, competitor, fluorescent indicator displacement | – | pH 7.2, KCl 100 mM | – | IC50 | > 2.5 µM
Nc1ncnc2c1nc(N1CCCCC1)n2[C@@H]1O[C@@H]2COP(=O)(O)O[C@H]2[C@H]1O | cAMP-dependent protein kinase type II-beta regulatory subunit, holoenzyme with catalytic subunit (Prkar2b, Rattus norvegicus, UniProt P12369, S112A) | PKA holoenzyme activation, activator, fluorescence anisotropy | – | – | reference: RIIβ over RIα, higher = RIIβ-selective | selectivity ratio | 0.3
